Published values from different studies.
Lines come from different studies, so protocols differ. “And” joins repeats or separate records; there may be more than shown. ± marks the error that the study gave. ≈ marks a conversion by molar mass, not a printed value.

Structure (SMILES)	organism	assay	test system	conditions	how to read	endpoint	value
CCC(CC)COC(=O)[C@H](C)N[P@](=O)(OC[C@H]1O[C@@](C#N)(c2ccc3c(N)ncnn23)[C@H](O)[C@@H]1O)Oc1ccccc1	human respiratory syncytial virus	viral replication, viral protein ELISA	HEp-2, A2	5 days		EC50	40 ± 3 nM
O=C(O)c1cn(C2CC2)c2cc(N3CCNCC3)c(F)cc2c1=O	Bacillus subtilis	bacterial cytological profiling	ATCC 6633			DNA perimeter	6.76 µm and 6.73 µm and 6.93 µm
CC1=N/C(=C\c2cc(F)c(O)c(F)c2)C(=O)N1C	Bacillus subtilis	cytoplasmic accumulation, flow cytometry				saturating concentration	30 µM
O=c1oc2c(O)c(O)cc3c(=O)oc4c(O)c(O)cc1c4c23	Streptococcus sobrinus			MIC, first 15 min, with: glucose 1%		initial rate of glycolytic pH drop	0.057 pH units/min
CC(C)C[C@H](NC(=O)OCc1ccccc1)C(=O)N[C@H](C=O)C[C@@H]1CCCNC1=O	enterovirus A71	viral replication, RT-qPCR	RD	72 h		EC50	2000 ± 340 nM
CC1(C)S[C@@H]2[C@H](NC(=O)[C@H](N)c3ccccc3)C(=O)N2[C@H]1C(=O)O	Pseudomonas aeruginosa		clinical isolate RKI-No_598/16			MIC	> 16 µg/mL
N=C(N)c1ccc(OCCCCCOc2ccc(C(=N)N)cc2)cc1	Escherichia coli		ATCC 25922	concentration not given, with: rifampicin		MIC in combination	50 µg/mL
Nc1nc(-c2ccccc2)nc2[nH]nc(Nc3ccc(C(F)(F)F)cc3)c12	coxsackievirus B3		31-1-93, NMRI mice, CVB3 chronic myocarditis	oral, 100 mg/kg twice daily, day 2, dosed days 1 to 7, score scale 0 to 7	direction not given	clinical score	0
O=c1[nH]c2ncsc2c(=O)n1O	Amaranthus retroflexus			750 g/ha, 21 days, pre-emergence, glasshouse pot		growth inhibition	30%
CC(C)n1ncc2c(C(=O)NCC3(C)CNC3)cc(C3CC3)nc21	Enterovirus D68	viral replication	RD, US/MO/14-18947	0.3 µM	relative to: untreated	plaque area	0%
Oc1cc(O)c2c(c1)O[C@H](c1cc(O)c(O)c(O)c1)[C@@H](O)C2	Streptococcus sobrinus			500 µg/disc		inhibition zone diameter	13 ± 1.2 mm
N=C(N)c1cccc(OCc2ccc(COc3cccc(C(=N)N)c3)cc2)c1	Escherichia coli	checkerboard	BW25113	concentration not given, lowest-FICI combination, with: erythromycin		MIC of compound in combination	50 µg/mL
[H]/N=C(\N/C(=N/[H])NCCCCCCNC(=N)NC(=N)Nc1ccc(Cl)cc1)Nc1ccc(Cl)cc1	Streptococcus sobrinus			MIC, 120 min, initial pH 7.4		final pH	> 5.5
Cc1nc2[nH]c(=O)n(O)c(=O)c2s1	Amaranthus retroflexus			1500 g/ha, 21 days, post-emergence, glasshouse pot		growth inhibition	64.6%
CCOC(=O)c1cc(-c2nc3ccccc3s2)c(=O)n(NS(=O)(=O)c2ccc(C)cc2)c1N	hepatitis C virus	qRT-PCR	Huh7.5, genotype 4	concentration not given		viral load reduction	20%
CCn1c(=O)c(-c2cc[nH]n2)cc2c(C)nc(N)nc21	enterovirus A71	RT-qPCR, measured: EV71 RNA	ICR mouse, EV71-infected, brain, heart, liver, spleen, hindlimb	0.25 mg/kg, day 2 post-infection		viral load	decreased
CN(C)[C@@H]1C(O)=C(C(N)=O)C(=O)[C@@]2(O)C(O)=C3C(=O)c4c(O)cccc4[C@@](C)(O)[C@H]3C[C@@H]12	Bacillus subtilis	bacterial cytological profiling	ATCC 6633			DNA length	1.86 µm and 1.7 µm and 1.64 µm
N#C[C@@]1(c2ccc3c(N)ncnn23)O[C@H](COC(=O)C2CCCCC2)[C@@H](O)[C@H]1O	human respiratory syncytial virus	RT-PCR	A2, BALB/c mouse	oral, twice daily, dose not given, day 4 post-infection		lung viral RNA reduction	1.18 log10
CN[C@H](CC(C)C)C(=O)N[C@H]1C(=O)N[C@@H](CC(N)=O)C(=O)N[C@H]2C(=O)N[C@H]3C(=O)N[C@H](C(=O)N[C@H](C(=O)O)c4cc(O)cc(O)c4-c4cc3ccc4O)[C@H](O)c3ccc(c(Cl)c3)Oc3cc2cc(c3O[C@@H]2O[C@H](CO)[C@@H](O)[C@H](O)[C@H]2O[C@H]2C[C@](C)(N)[C@H](O)[C@H](C)O2)Oc2ccc(cc2Cl)[C@H]1O	Streptococcus pneumoniae	broth microdilution	penicillin-resistant isolates			MIC50	0.5 µg/mL

Structure (SMILES)	organism	assay	test system	conditions	how to read	endpoint	value
Cc1cc(OC(C)C)ccc1C(=O)C(C)(C)NC(=O)c1sccc1C	Botrytis cinerea	mycelial growth	B05.10	0.1 µg/mL		inhibition	94.5 ± 6.3%
CC1(C)S[C@@H]2[C@H](NC(=O)[C@H](N)c3ccccc3)C(=O)N2[C@H]1C(=O)O	Bacillus subtilis	bacterial cytological profiling	ATCC 6633			DNA width	0.72 µm and 0.71 µm and 0.59 µm
Cc1cc(/C=C/C#N)cc(C)c1Nc1ccnc(Nc2ccc(C#N)cc2)n1	HIV-1 NL4-3	viral replication, luciferase reporter	TZM-bl	48 h		EC50	0.6 ± 0.04 nM
NC(=O)c1ncn([C@@H]2O[C@H](CO)[C@@H](O)[C@H]2O)n1	Cucumber mosaic virus			500 µg/mL		inactivation activity	51% and 54% and 52%
CCc1nc2[nH]c(=O)n(O)c(=O)c2s1	Amaranthus retroflexus			750 g/ha, 21 days, pre-emergence, glasshouse pot		growth inhibition	6.7%
CN[C@H](CC(C)C)C(=O)N[C@H]1C(=O)N[C@@H](CC(N)=O)C(=O)N[C@H]2C(=O)N[C@H]3C(=O)N[C@H](C(=O)N[C@H](C(=O)O)c4cc(O)cc(O)c4-c4cc3ccc4O)[C@H](O)c3ccc(c(Cl)c3)Oc3cc2cc(c3O[C@@H]2O[C@H](CO)[C@@H](O)[C@H](O)[C@H]2O[C@H]2C[C@](C)(N)[C@H](O)[C@H](C)O2)Oc2ccc(cc2Cl)[C@H]1O	Streptococcus pyogenes		erythromycin-sensitive, 21 strains			MIC90	0.5 µg/mL (≈ 0.345 µM)
COc1cccc2c1C(=O)c1c(O)c3c(c(O)c1C2=O)C[C@@](O)(C(=O)CO)C[C@@H]3O[C@H]1C[C@H](N)[C@H](O)[C@H](C)O1	Bacillus subtilis	bacterial cytological profiling	ATCC 6633			cell area	3.77 µm² and 3.11 µm² and 3.17 µm²
NC(=O)c1ncn([C@@H]2O[C@H](CO)[C@@H](O)[C@H]2O)n1	human respiratory syncytial virus	viral replication, viral protein ELISA	HEp-2, A2	5 days		EC50	26600 ± 12800 nM
CO[C@H]1/C=C/O[C@@]2(C)Oc3c(C)c(O)c4c(c3C2=O)C2=NC3(CCN(CC(C)C)CC3)NC2=C(NC(=O)/C(C)=C\C=C\[C@H](C)[C@H](O)[C@@H](C)[C@@H](O)[C@@H](C)[C@H](OC(C)=O)[C@@H]1C)C4=O	Mycobacteroides abscessus	bacterial growth	subsp. abscessus clinical isolate	slow grower		IC50	1800 nM
COc1cc([C@@H]2c3cc4c(cc3[C@H](O)[C@H]3COC(=O)[C@H]23)OCO4)cc(OC)c1OC	Dengue virus type 2	plaque		0.1 µM		viral attachment inhibition	inactive
COC(=O)[C@H](Cc1ccc(O)cc1)NCc1cc2ccccc2nc1SC	Pseudomonas aeruginosa			16 µg/mL, with: pentamidine 100 µM	relative to: control	growth	55.6%
Cc1c2c(nn1C)CSCc1cc(n(C)n1)CSc1cc(c3ccccc3c1)OCCCc1c(C(=O)O)n(C)c3c-2c(Cl)ccc13	Staphylococcus aureus	broth microdilution	MRSA isolates			MIC50	12.5 µM
[N-]=[N+]=N[C@]1(CO)O[C@@H](n2ccc(N)nc2=O)[C@@H](F)[C@@H]1O	human respiratory syncytial virus	viral replication	A549, A2 GFP reporter			EC50	> 50000 nM
C=CC[C@@H]1c2ccc(OC)c(OC)c2CN2CCc3cc4c(cc3[C@H]12)OCO4	Staphylococcus aureus		P2rx7+/+ mice, skin wound infection	dose not given, day 7	relative to: day 0	relative wound size	0.28 and 0.17 and 0.31 and 0.11 and 0.29
O=C(O[C@@H]1O[C@@H]2COC(=O)c3cc(O)c(O)c(O)c3-c3c(cc(O)c(O)c3O)C(=O)O[C@H]([C@H]1O)[C@@H]2O)c1cc(O)c(O)c(O)c1	Streptococcus sobrinus			MIC, first 15 min, with: glucose 1%		initial rate of glycolytic pH drop	0.033 pH units/min
COc1cc(C#CC(=O)c2ccccc2)ccc1O	Pseudomonas aeruginosa		PAO1	10 µM, static conditions		biofilm inhibition	50%
O=C1O[C@H]2[C@@H]3OC(=O)c4cc(O)c(O)c(O)c4-c4c(O)c(O)c5oc(=O)c6c(c(O)c(O)c7oc(=O)c4c5c76)-c4c(cc(O)c(O)c4O)C(=O)OC[C@H]3OC(O)[C@@H]2OC(=O)c2cc(O)c(O)c(O)c2-c2c1cc(O)c(O)c2O (mixture of isomers)	Streptococcus sobrinus	broth microdilution				MBC/MIC ratio	2
CO[C@H]1/C=C/O[C@@]2(C)Oc3c(C)c(O)c4c(O)c(c(/C=N/N5CCN(C)CC5)c(O)c4c3C2=O)NC(=O)/C(C)=C\C=C\[C@H](C)[C@H](O)[C@@H](C)[C@@H](O)[C@@H](C)[C@H](OC(C)=O)[C@@H]1C	Bacillus subtilis	bacterial cytological profiling	ATCC 6633	concentration not given		DNA area	1.15 µm² and 1.01 µm² and 1.17 µm²
CC(=O)ON=C1C=CC(=C(C#N)c2ccccc2)C=C1	Pichia norvegensis	broth dilution	ATCC 96139	48 h, 37 °C		MFC	8 µg/mL (≈ 30.3 µM)

Excerpt of the above:
Structure (SMILES)	organism	assay	test system	conditions	how to read	endpoint	value
[N-]=[N+]=N[C@]1(CO)O[C@@H](n2ccc(N)nc2=O)[C@@H](F)[C@@H]1O	human respiratory syncytial virus	viral replication	A549, A2 GFP reporter			EC50	> 50000 nM
[H]/N=C(\N/C(=N/[H])NCCCCCCNC(=N)NC(=N)Nc1ccc(Cl)cc1)Nc1ccc(Cl)cc1	Streptococcus sobrinus			MIC, 120 min, initial pH 7.4		final pH	> 5.5
N=C(N)c1ccc(OCCCCCOc2ccc(C(=N)N)cc2)cc1	Escherichia coli		ATCC 25922	concentration not given, with: rifampicin		MIC in combination	50 µg/mL
CCOC(=O)c1cc(-c2nc3ccccc3s2)c(=O)n(NS(=O)(=O)c2ccc(C)cc2)c1N	hepatitis C virus	qRT-PCR	Huh7.5, genotype 4	concentration not given		viral load reduction	20%
